Results from different studies.
A part holds a random share of what one study measured.
Sequence of UniProt Q9UL54 (whole entry, looked up): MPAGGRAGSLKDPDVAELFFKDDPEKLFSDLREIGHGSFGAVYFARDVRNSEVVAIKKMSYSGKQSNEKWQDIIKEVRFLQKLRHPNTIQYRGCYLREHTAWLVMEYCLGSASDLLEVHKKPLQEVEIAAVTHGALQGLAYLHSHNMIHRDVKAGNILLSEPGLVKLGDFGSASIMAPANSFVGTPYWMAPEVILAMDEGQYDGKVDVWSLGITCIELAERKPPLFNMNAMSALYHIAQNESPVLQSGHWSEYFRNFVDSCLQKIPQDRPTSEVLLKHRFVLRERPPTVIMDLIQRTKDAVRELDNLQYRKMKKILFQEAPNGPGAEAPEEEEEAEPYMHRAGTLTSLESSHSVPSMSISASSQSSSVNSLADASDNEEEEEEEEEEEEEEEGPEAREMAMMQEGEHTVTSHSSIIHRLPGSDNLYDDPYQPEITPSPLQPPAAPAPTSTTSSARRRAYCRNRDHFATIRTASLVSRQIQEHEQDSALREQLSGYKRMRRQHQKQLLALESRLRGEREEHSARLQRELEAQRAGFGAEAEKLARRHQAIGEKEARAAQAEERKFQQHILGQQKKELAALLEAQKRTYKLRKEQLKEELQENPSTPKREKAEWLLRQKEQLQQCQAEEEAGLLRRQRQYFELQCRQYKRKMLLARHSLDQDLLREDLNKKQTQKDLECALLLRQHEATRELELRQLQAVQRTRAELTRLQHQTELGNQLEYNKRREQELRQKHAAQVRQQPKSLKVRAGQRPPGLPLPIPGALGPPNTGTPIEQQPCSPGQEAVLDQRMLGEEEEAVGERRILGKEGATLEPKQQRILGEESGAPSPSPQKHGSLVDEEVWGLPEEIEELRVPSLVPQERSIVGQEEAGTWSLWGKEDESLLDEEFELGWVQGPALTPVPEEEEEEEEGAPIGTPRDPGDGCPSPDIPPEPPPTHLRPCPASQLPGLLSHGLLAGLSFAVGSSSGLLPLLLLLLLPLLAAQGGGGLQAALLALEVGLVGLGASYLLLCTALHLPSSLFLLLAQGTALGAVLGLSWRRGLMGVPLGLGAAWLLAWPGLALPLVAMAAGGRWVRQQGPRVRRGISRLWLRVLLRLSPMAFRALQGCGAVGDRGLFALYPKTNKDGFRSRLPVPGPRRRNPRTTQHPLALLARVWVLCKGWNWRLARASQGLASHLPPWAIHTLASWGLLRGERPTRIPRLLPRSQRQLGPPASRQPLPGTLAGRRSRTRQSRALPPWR
Sequence of UniProt P42685 (whole entry, looked up): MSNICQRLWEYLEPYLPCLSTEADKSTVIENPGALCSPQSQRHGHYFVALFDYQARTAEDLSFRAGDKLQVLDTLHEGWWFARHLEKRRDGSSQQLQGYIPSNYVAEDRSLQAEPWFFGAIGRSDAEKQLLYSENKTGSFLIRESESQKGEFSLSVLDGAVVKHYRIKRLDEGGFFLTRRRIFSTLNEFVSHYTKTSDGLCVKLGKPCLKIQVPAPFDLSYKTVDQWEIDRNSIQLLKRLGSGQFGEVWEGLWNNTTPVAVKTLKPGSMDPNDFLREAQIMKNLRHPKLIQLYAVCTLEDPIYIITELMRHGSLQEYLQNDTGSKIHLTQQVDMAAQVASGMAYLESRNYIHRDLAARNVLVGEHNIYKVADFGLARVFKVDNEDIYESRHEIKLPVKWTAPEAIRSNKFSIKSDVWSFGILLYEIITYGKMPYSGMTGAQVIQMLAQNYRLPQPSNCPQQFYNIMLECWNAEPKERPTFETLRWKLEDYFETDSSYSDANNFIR
Sequence of UniProt P30291 (whole entry, looked up): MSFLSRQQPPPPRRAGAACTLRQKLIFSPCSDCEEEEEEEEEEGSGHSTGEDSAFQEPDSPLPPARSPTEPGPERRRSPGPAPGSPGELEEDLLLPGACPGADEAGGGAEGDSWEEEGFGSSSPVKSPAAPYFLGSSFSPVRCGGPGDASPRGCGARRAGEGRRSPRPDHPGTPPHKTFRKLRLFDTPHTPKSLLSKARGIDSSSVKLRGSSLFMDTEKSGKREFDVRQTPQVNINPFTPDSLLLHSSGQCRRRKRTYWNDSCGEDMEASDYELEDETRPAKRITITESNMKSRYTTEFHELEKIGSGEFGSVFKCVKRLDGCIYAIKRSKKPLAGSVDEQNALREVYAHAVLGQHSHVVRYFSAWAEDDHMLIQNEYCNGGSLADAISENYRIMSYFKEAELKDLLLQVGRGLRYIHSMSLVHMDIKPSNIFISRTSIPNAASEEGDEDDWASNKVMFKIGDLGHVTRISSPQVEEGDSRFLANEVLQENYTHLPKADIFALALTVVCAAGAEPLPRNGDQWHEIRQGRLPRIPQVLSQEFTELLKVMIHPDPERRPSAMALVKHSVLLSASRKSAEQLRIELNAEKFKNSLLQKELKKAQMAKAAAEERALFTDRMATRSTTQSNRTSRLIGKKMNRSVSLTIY
Sequence of UniProt Q9HC98 (whole entry, looked up): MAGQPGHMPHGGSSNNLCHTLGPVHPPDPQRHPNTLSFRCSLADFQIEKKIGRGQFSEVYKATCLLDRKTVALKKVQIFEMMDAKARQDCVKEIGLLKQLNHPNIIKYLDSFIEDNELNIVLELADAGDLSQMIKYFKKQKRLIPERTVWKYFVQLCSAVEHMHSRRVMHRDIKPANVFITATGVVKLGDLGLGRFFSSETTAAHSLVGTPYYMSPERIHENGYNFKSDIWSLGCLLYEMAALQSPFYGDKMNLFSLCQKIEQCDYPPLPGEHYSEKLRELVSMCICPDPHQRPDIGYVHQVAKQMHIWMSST
Sequence of UniProt P36896 (whole entry, looked up): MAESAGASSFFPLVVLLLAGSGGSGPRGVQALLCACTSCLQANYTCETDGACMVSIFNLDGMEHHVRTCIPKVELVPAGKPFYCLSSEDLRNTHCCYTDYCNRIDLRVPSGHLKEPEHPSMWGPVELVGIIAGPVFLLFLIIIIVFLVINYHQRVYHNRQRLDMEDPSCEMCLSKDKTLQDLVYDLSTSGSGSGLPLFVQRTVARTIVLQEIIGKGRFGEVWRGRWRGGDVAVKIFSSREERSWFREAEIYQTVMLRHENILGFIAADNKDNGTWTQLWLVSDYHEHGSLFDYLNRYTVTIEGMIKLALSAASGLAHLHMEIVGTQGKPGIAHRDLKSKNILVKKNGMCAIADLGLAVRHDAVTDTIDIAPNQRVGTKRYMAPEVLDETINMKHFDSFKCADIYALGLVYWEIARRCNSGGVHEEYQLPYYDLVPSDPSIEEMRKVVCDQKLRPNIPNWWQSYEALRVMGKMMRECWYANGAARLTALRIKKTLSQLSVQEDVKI
Sequence of UniProt P78368 (whole entry, looked up): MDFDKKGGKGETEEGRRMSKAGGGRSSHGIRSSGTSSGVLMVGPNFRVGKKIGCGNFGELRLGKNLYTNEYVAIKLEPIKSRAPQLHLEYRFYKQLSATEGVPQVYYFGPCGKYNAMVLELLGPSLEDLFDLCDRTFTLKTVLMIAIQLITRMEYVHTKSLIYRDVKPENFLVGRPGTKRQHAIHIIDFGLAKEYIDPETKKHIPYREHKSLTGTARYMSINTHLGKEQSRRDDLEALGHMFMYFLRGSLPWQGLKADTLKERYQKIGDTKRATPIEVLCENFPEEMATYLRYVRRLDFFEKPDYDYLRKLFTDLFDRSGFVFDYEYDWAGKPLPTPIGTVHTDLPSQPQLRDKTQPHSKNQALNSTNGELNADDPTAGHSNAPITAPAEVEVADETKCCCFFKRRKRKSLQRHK
Sequence of UniProt P49137 (whole entry, looked up): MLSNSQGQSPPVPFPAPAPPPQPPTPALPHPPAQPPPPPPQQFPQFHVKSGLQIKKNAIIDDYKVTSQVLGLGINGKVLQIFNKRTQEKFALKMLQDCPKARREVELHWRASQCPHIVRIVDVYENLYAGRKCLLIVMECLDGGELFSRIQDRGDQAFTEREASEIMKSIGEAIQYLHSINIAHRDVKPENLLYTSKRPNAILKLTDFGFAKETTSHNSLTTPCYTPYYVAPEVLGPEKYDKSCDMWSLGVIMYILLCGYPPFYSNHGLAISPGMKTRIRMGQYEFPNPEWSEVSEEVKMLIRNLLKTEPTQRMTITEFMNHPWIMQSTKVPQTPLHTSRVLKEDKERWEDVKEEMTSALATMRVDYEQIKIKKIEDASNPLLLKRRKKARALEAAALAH
Sequence of UniProt P06239 (whole entry, looked up): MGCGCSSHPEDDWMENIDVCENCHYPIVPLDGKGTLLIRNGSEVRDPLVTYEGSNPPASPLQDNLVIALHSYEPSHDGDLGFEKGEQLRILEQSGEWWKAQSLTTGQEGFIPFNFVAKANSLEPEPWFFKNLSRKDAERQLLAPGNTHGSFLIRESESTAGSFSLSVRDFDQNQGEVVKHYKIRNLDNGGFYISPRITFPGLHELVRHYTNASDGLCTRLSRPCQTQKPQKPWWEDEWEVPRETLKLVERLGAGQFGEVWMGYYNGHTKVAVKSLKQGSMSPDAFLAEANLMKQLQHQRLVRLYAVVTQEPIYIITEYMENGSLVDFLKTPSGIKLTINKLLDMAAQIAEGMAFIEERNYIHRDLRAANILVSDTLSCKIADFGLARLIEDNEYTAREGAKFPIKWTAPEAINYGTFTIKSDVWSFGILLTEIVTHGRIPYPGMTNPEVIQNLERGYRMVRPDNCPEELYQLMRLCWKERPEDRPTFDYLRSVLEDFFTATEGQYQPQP
Sequence of UniProt P49841 (whole entry, looked up): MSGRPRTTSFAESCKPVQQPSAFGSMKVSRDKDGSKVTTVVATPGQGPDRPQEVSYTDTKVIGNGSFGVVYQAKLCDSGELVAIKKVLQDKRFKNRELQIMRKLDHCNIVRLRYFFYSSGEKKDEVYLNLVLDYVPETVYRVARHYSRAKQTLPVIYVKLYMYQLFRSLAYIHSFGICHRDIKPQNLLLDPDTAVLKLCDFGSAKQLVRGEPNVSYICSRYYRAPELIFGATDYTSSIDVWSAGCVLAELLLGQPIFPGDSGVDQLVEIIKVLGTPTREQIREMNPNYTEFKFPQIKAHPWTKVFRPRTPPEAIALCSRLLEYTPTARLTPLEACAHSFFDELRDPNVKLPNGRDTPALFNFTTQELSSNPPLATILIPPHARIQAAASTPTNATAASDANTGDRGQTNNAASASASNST

Set 1
Target: Sal-like protein 4, full length isoform B (SALL4, Homo sapiens, UniProt Q9UJQ4-2, residues 1-616)
Method: universal PBM
Molecule type: double-stranded DNA, one strand shown
Medium: in vitro
Tested at: not given
Setting: 8-mer, flanks averaged, mean of replicates
Direction: higher = stronger binding
| Strand | E-score |
| --- | --- |
| AACCTCCG | -0.128 |
| CACCGGCA | -0.266 |
| GCGCGATA | -0.00297 |
| CAAGGTAA | -0.0306 |
| GTCTTTCA | 0.0632 |
| TCGACCGA | -0.181 |
| GACAGGGA | -0.239 |
| ATAGAGTG | 0.0768 |

Set 2
Compound: COc1cc(-c2cn(C3CCc4ccccc4N(CC(F)(F)F)C3=O)nn2)ccc1-n1ccc(C)n1 (centres unmarked)
Method: competition with immobilised ligand
Tested at: 1 µM
| target | test | remaining binding [%] |
| --- | --- | --- |
| NUAK1 (Homo sapiens, UniProt O60285) | cell-free assay | 92 |
| Insulin receptor (INSR, Homo sapiens, UniProt P06213) | cell-free assay | 69 |
| FGR (Homo sapiens, UniProt P09769) | cell-free assay | 90 |
| STK32A (Homo sapiens, UniProt Q8WU08) | binding | 97 |
| LCK (Homo sapiens, UniProt P06239) | binding | 100 |
| LRRK2 (Homo sapiens, UniProt Q5S007) | cell-free assay | 54 |

Set 3
SMILES: Fc1ccc(-c2nc3n(c2-c2ccncc2)CCS3)cc1
Observed: enzyme activity
Action: inhibitor
Tested at: 0.5 µM
Reference: control
| target | remaining activity [%] |
| --- | --- |
| NEK6 (Homo sapiens, UniProt Q9HC98) | 98.7 |
| ACVR1B (Homo sapiens, UniProt P36896) | 115 |
| MERTK (Homo sapiens, UniProt Q12866) | 88.7 |
| GSK3B (Homo sapiens, UniProt P49841) | 105 |
| MAP3K5 (Homo sapiens, UniProt Q99683) | 105 |
| MAP2K2 (Homo sapiens, UniProt P36507) | 106 |
| RPS6KA2 (Homo sapiens, UniProt Q15349) | 97.1 |
| CSNK1G2 (Homo sapiens, UniProt P78368) | 76.4 |
| MAPKAPK2 (Homo sapiens, UniProt P49137) | 101 |
| TAOK2 (Homo sapiens, UniProt Q9UL54) | 95.7 |
| TEK (Homo sapiens, UniProt Q02763) | 95.6 |
| WEE1 (Homo sapiens, UniProt P30291) | 92.2 |
| FRK (Homo sapiens, UniProt P42685) | 104 |

Set 4
Target: RNA binding protein fox-1 homolog 2, RRM domain, GST-SBP tag (RBFOX2, Homo sapiens, UniProt O43251-10, residues 100-194)
Method: RNA Bind-n-Seq
Molecule type: RNA
Medium: in vitro
Tested at: 365 nM
Setting: natural RNA segment, single round, ends assumed
Reference: no-protein control
Direction: higher = stronger binding
Constant ends, left off below: GGGAGUUCUACAGUCCGACGAUC … UGGAAUUCUCGGGUGCCAA
Target sequence (chain): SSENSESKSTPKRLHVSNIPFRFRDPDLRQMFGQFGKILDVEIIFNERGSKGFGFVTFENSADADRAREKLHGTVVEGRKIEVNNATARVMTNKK
| Strand | RBNS enrichment (R) |
| --- | --- |
| CACCAAACCCUUACUUGGUGUCUGCACCUCCUUUCCCUCUCUCCAUCUUCCAAUCCCUGGAAAAGUCUGGUCUGAGUGUGACUUGGGAAGCUUUCAGUGCUGCUGUUUGG | 0.423 |
| UCAAUUCUAUGGUCACUCUGAAUUUUCAUGUCAUUAAUCACAUAAAAAUUGAUAAUACCUCAUUCUGUAUUACAAUAUGAUUUUAUUUUGCCAAAGGCAAGACACCUAUA | 0.547 |
| AGCAAAAAGGAGCCCACAUUUAGUCCCUCGUGCAGGGUACAAGCAGGACCACCCUCAGGAUGGUGCAGAACCCAGAAUUGUGAUUGCAGCAUGUACUGUCCUGUAGGAAA | 6.07 |
| UUAUUUGUUUCUCCAGUAUAUAGCUUUGUUUUAGCCUUUGUAAAUUACUUUUAUGAUAGUAGAAAUAUUAUAAGCCUAAGACAUGGACUAUCCAUUUUGUAAAACGGAUU | 0.457 |
| CAACAAUUAAUAGUUGAAAUUGUGAGGUUAAUGUUUAAAAAGCUUUACACCUGUUUACAAUUUGGGGACAAAAAGGCAGGCUUCAUUUUUCAUAUGUUUGAUGAAAACUG | 0.498 |
| CCGAGUCCCACCGUGUGUCCGUUGUAAGUCCGGUGGAUGUGGCUGGGGUUUCCUGGUAUUGUGGAGGCACCCAGGUUGUCCAUGCUUGGGAUUCUGGGGGAAGGAGAGAA | 2.17 |
| UGUGUGGGACCACCGGCUCCACCCUCCCCGCCCAUCACCAUUGCAGUUUUGCUAGAAGCUGGCGCUUCCUCCCCAGGGCAGGGGCCCCACAGCACCUCAGACCCCAAGUG | 0.345 |
| AUAUUUUGGGAAUAGGACCCGAGCCUAAACACAAAAUUCAUUGAUGUGUCAGUUACACCUUAUCCACAUAGCCUGAGGGUAAUUUUAUACGAUAUUUUAAAUAGUUGUGU | 0.534 |

A few entries again (set 4):
| Strand | RBNS enrichment (R) |
| --- | --- |
| UCAAUUCUAUGGUCACUCUGAAUUUUCAUGUCAUUAAUCACAUAAAAAUUGAUAAUACCUCAUUCUGUAUUACAAUAUGAUUUUAUUUUGCCAAAGGCAAGACACCUAUA | 0.547 |
| AGCAAAAAGGAGCCCACAUUUAGUCCCUCGUGCAGGGUACAAGCAGGACCACCCUCAGGAUGGUGCAGAACCCAGAAUUGUGAUUGCAGCAUGUACUGUCCUGUAGGAAA | 6.07 |
| UUAUUUGUUUCUCCAGUAUAUAGCUUUGUUUUAGCCUUUGUAAAUUACUUUUAUGAUAGUAGAAAUAUUAUAAGCCUAAGACAUGGACUAUCCAUUUUGUAAAACGGAUU | 0.457 |
| CAACAAUUAAUAGUUGAAAUUGUGAGGUUAAUGUUUAAAAAGCUUUACACCUGUUUACAAUUUGGGGACAAAAAGGCAGGCUUCAUUUUUCAUAUGUUUGAUGAAAACUG | 0.498 |
